Published values gathered from unrelated publications.
Numbered parts are unrelated; each lists some results of a single study.

Series 1
Target: Interferon regulatory factor 5, full length, phosphomimetic (IRF5, Homo sapiens, UniProt Q13568-2, residues 1-514, K96S/S451D/S453D/S456D/S462D)
Method: protein-binding microarray
Form: double-stranded DNA, one strand shown
Matrix: in vitro
Tested at: 250 nM
Setting: 60-bp whole probe
Added: salmon DNA 0.4 mg/ml
Reference: random background probes
Direction: higher = stronger binding
Constant ends, left off below: GCCTAGCAC … GTGCTAGGTCTTGATTCGCTTGACGCTGCTG
Oligonucleotide | log fluorescence
TTACATCTCAGTTTCGATTA | 9.73 z-score
GACGGGCTGGGACTGGGGAC | -0.803 z-score
GACGGTCTCCTCCTGCTGAC | -0.425 z-score
GACGGTATCGTTTTCGGGAC | 4.66 z-score
TTAGATCTCAGTTTCCATTA | 1.13 z-score
GACGATGTCAGACTGGAGAC | -0.338 z-score
GACGATTTCAGGATCGAGAC | 0.459 z-score
TTAGATATCAGTTTCAATTA | 4.51 z-score

Series 2
Target: Histone acetyltransferase KAT6A, winged helix 2, GST fusion (KAT6A, Homo sapiens, UniProt Q92794, residues 85-181)
Method: protein binding microarray
Form: double-stranded DNA, one strand shown
Matrix: in vitro
Tested at: not given
Setting: 8-mer, flanks averaged, mean of 2 arrays, mostly near background
Reference: not given
Direction: higher = stronger binding
Target sequence (chain): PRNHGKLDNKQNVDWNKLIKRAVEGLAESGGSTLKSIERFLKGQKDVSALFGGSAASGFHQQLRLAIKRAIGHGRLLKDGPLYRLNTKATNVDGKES
Oligonucleotide | E-score
AAACGAAT | -0.0848
GGTTTTCA | 0.105
AACAGAGA | 0.0541
GGGTATTA | -0.0383
CAGGGAAC | -0.000885
AAACTCTG | 0.195

Series 3
Target: Centromere-binding protein 1, full length, N-terminal tag (CBF1, Saccharomyces cerevisiae, UniProt P17106, residues 1-351)
UniProt P17106, sequence (whole entry, looked up): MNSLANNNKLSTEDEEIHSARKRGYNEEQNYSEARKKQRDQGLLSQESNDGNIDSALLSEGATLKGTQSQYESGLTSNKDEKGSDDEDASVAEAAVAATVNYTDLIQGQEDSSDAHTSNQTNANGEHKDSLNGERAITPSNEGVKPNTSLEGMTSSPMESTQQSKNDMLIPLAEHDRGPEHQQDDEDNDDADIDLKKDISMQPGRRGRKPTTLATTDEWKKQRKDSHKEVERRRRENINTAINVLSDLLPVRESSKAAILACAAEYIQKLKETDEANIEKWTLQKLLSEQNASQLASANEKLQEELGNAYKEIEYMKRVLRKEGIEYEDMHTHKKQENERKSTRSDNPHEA
Method: protein-binding microarray
Form: double-stranded DNA, one strand shown
Matrix: in vitro
Tested at: 0.8 µM
Setting: whole 60-bp probe, no competitor
Direction: higher = stronger binding
Oligonucleotide | fluorescence intensity [a.u.]
CTAGCGTGACATCAGTATGCGCTTTGGATGTTTTTCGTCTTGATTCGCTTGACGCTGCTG | 558
GAAGAGCGAAAGATGAACGTGTGCTTTCGCCTGTAGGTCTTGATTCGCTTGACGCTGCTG | 561
GAAACTCATTATACCGTGATTACCAATTTCCCATAGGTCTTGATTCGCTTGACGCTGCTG | 679
CTACAAGCGACCGTACATGTGGCATTTTCCACTTTCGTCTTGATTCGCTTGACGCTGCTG | 595
CTATGAATGCCGGGCCGCGTGGCGTCTGTAGCTTTCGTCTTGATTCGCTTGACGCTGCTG | 608
GAAATCAAAGTGCACTACGTGACAAAAATAAAATAGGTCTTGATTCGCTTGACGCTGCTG | 814

Single results of other studies
Molecule | target | assay | test system | conditions | how to read | endpoint | result
PhoQ, residues 284 288 289 292 302 303 SLGVVW | PhoP, residues 12 14 15 18 19 TPLRH (Escherichia coli, UniProt P23836) | Sort-seq, refers to: YFP reporter | E. coli | PhoQ-PhoP variant library, added: 10 µM Mg2+ | reference: high Mg2+ state, higher = stronger signaling | fold induction | 8.7

A few entries again (series 1):
Oligonucleotide | log fluorescence
GACGGTATCGTTTTCGGGAC | 4.66 z-score
TTAGATCTCAGTTTCCATTA | 1.13 z-score
GACGATGTCAGACTGGAGAC | -0.338 z-score
